Measured values pooled from the literature.
Each line is one published result; not all experiments were run side by side.

Compound | method | matrix | time | pH | temperature | solubility
Clc1cccc(Nc2nc(NCc3ccccc3)c3ccccc3n2)c1 |  | aqueous buffer |  | pH 7.4 |  | 0.02 µg/mL
OCC1OC(n2cnc3c(NCc4ccc(Br)s4)ncnc32)C(O)C1O (stereo not shown) |  | water |  |  |  | 290 µg/mL
CC(C)[C@@H](C)Nc1nc(-c2cccs2)nc(Cl)c1-c1c(F)cc(F)cc1F | mass spectrometry | PBS |  | pH 7.4 |  | < 0.5 µM
CCC1(CC)CC(=O)N(C2c3cc(C(=O)NC4c5ccccc5CC4O)ccc3OC2(C)COC)C(=N)N1 (stereo not shown) |  | aqueous buffer |  | pH 7 |  | ≥ 100 µM
C[n+]1c(/C=C/c2ccc(N(c3ccccc3)c3ccccc3)cc2)cc(/C=C2\Sc3ccccc3N2CCCN2CCCC2)c2ccccc21 | HPLC | water | 24 h |  | 25 °C | 102 µM
CN(C)C(=O)c1cccc(N2Cc3cn(Cc4ccc(F)cc4)nc3C2)c1 |  | water |  |  |  | > 100 µM
Cc1ncc2[nH]c(=O)n(-c3cnc(Oc4cccc5c4C(C)(C)CO5)c(Cl)c3C)c2n1 |  | aqueous buffer |  | pH 7 |  | 142 µM
CN1CCCC1C(=O)NC(Cc1ccc(-n2cccn2)cc1)B(O)O (stereo not shown) | nephelometry | aqueous buffer |  | pH 6.8 |  | > 200 µM
CN1CC(=Cc2cc(C(F)(F)F)ccc2Cl)C(=O)C(=Cc2cc(C(F)(F)F)ccc2Cl)C1 | absorbance | water |  |  |  | 6.52 µg/mL
CN(C)S(=O)(=O)c1ccc(S(=O)(=O)N2CCC(n3c(=O)[nH]c4ccccc43)CC2)cc1 | HPLC | water | 24 h |  | 20 °C | ≤ 1 µg/mL
CN(C)C(=O)c1cccc(N2Cc3cn(Cc4ccc(F)cc4F)nc3C2)c1 |  | water |  |  |  | > 100 µM
CN(C)c1ccc(/C=C/c2cc(/C=C3\Sc4ccccc4N3CCCN3CCCC3)c3ccccc3[n+]2C)cc1 | HPLC | water | 24 h |  | 25 °C | 329 µM
COc1cccc2c(NCc3ccccc3)nc(Nc3cccc(F)c3)nc12 |  | aqueous buffer |  | pH 5 |  | 0.09 µg/mL
Nc1cc2cccnc2c2ncccc12.[Cl-].[Cl-].[Ru+2].c1cnc2c(c1)ccc1cccnc12.c1cnc2c(c1)ccc1cccnc12 |  | water |  |  |  | 41200 µM
Cc1cc(C(=O)Nc2nc3cccc(C)c3n2[C@H]2CCCCN(C(=O)/C=C/CN(C)C)C2)ccn1 |  | aqueous buffer |  |  |  | 900 µM
COc1cccc2c(NCc3ccccc3)nc(Nc3cccc(Cl)c3)nc12 |  | aqueous buffer |  | pH 5 |  | 0.08 µg/mL

Compound | method | matrix | time | pH | temperature | solubility
O=C(c1ccnc(N2Cc3cn(Cc4ccc(F)cc4)nc3C2)n1)N1CCOCC1 |  | water |  |  |  | > 100 µM
COc1cc(OC)c(/N=N/c2ccc(C(=O)NO)cc2)c(OC)c1 |  | water |  |  |  | > 20 µM
C/C(N)=N/C(=N\S(=O)(=O)c1ccc(C(F)(F)F)cc1)N1C[C@H](c2ccccc2)C(c2ccc(Cl)cc2)=N1 |  | simulated intestinal fluid |  | pH 6.8 |  | 1.46 µM
CCCCCCCCCCCCCCCCCC(=O)Oc1c2n(cc(C(=O)NCc3c(F)cc(F)cc3F)c1=O)CC1OC3CCC(C3)N1C2=O (stereo not shown) |  | water | 24 h |  |  | 0.45 µg/mL
Cc1cc(C)nc(NC(=S)N2CCN(Cc3ccc(C(F)(F)F)cc3)CC2)c1 |  | PBS | 6 h | pH 7.4 |  | 24.5 µM
CC(=O)Nc1ccnc(N2Cc3cnn(Cc4ccc(F)cc4)c3C2)n1 |  | water |  |  |  | > 100 µM
Brc1cccc(CNc2nc(NCc3ccccc3)c3ccccc3n2)c1 |  | aqueous buffer |  | pH 7.4 |  | 0.17 µg/mL
NCCCC[C@H](NC(=O)[C@H](Cc1c[nH]c2ccccc12)NC(=O)[C@H](CCCCN)NC(=O)[C@@H](N)Cc1c[nH]c2ccccc12)C(=O)N[C@@H](Cc1c[nH]c2ccccc12)C(=O)O |  | water |  |  |  | > 10000 µM
O=C(NC1CCCCC1)c1cccc(N2Cc3cn(Cc4ccc(F)cc4)nc3C2)c1 |  | water |  |  |  | < 1 µM
O=c1c2ccccc2[se]n1CCCCCCn1[se]c2ccccc2c1=O |  | water | 24 h |  | 25 °C | 1.6 µg/mL
C[C@@H](CO)NC(=O)c1cc(-c2ccc(Cl)cc2)nn(-c2cnn(C)c2)c1=O |  | aqueous buffer | 24 h | pH 6.5 |  | 8.7 µM
O=C(CN1CN(c2cccc(F)c2)C2(CCN(C(=O)c3cnc4[nH]ncc4c3)CC2)C1=O)NCC(F)(F)F |  | aqueous buffer |  | pH 6.5 |  | 400000 µg/mL
CC[C@@H]1CN(CC(=O)[O-])[C@H](CC)CN[C@H](CC)CN(CC(=O)[O-])[C@H](CC)CN1.[Mn+2] |  | water |  |  |  | 240000 µg/mL
CCC(C)n1c(C(=O)Nc2cnc(C(=O)NC)n(CC(C)C)c2=O)ncc(NC(=O)c2ncc(NC(=O)c3ccccc3)c(=O)n2Cc2ccc(OC)cc2)c1=O (stereo not shown) |  | PBS | 4 h | pH 7.4 | 25 °C | 5 µM
Cc1cccc(Oc2ccc(-n3c(=O)[nH]c4cccnc43)cn2)c1C |  | aqueous buffer |  | pH 7 |  | 47 µM

Repeated from above:
Compound | method | matrix | time | pH | temperature | solubility
CN(C)C(=O)c1cccc(N2Cc3cn(Cc4ccc(F)cc4F)nc3C2)c1 |  | water |  |  |  | > 100 µM
CN(C)c1ccc(/C=C/c2cc(/C=C3\Sc4ccccc4N3CCCN3CCCC3)c3ccccc3[n+]2C)cc1 | HPLC | water | 24 h |  | 25 °C | 329 µM
